Experimental data pooled from the literature.
Protocols differ between the studies behind these lines. Values joined by “and” are separate records of one study, mostly repeats; a detail may differ. ± marks the error that the study gave.
folP: Dihydropteroate synthase (folP, Bacteria, UniProt P0AC13)
UniProt P0AC13, sequence (whole entry, looked up): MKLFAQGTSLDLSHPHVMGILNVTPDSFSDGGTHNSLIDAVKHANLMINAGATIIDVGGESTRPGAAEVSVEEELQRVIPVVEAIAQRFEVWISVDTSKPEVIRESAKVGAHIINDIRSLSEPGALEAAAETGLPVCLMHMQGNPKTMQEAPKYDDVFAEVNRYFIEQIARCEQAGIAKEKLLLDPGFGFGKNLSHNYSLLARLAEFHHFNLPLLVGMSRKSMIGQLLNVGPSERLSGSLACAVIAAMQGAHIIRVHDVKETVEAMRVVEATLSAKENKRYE
KRAS Q61H GDP-bound: GTPase KRas, GDP-bound (KRAS, Homo sapiens, UniProt P01116, Q61H)
UniProt P28566, sequence (whole entry, looked up): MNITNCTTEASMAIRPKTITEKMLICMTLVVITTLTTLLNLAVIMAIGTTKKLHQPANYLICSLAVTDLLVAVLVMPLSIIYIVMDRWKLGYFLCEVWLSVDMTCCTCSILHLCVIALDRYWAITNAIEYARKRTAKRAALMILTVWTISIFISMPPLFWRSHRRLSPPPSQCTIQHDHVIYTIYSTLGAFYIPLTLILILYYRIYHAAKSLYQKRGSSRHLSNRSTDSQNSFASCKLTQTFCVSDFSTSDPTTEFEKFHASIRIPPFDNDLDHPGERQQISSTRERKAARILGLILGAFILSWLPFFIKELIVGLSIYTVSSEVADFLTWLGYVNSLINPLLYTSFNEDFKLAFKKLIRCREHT
UniProt Q16881, sequence (whole entry, looked up): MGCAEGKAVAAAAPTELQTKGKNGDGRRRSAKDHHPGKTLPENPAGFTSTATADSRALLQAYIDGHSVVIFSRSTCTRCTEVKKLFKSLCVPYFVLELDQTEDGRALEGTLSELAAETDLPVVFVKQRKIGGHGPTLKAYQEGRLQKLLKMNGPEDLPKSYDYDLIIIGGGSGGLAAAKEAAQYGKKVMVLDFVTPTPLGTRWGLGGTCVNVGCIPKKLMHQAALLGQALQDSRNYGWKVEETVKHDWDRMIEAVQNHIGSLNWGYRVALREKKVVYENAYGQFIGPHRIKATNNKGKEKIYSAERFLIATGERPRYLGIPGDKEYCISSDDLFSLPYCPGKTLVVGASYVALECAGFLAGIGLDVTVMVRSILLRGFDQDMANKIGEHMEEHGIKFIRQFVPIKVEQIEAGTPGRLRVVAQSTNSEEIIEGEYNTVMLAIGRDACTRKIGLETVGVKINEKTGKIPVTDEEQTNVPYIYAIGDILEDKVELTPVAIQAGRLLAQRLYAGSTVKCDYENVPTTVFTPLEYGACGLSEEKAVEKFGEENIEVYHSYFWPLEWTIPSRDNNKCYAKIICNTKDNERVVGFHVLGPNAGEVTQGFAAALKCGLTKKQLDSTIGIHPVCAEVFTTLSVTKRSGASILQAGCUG
UniProt Q96GI7, sequence (whole entry, looked up): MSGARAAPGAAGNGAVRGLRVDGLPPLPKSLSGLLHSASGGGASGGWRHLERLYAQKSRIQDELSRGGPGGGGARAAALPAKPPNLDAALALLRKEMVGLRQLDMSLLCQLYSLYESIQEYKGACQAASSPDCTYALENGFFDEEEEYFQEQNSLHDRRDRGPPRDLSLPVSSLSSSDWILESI
UniProt P22413, sequence (whole entry, looked up): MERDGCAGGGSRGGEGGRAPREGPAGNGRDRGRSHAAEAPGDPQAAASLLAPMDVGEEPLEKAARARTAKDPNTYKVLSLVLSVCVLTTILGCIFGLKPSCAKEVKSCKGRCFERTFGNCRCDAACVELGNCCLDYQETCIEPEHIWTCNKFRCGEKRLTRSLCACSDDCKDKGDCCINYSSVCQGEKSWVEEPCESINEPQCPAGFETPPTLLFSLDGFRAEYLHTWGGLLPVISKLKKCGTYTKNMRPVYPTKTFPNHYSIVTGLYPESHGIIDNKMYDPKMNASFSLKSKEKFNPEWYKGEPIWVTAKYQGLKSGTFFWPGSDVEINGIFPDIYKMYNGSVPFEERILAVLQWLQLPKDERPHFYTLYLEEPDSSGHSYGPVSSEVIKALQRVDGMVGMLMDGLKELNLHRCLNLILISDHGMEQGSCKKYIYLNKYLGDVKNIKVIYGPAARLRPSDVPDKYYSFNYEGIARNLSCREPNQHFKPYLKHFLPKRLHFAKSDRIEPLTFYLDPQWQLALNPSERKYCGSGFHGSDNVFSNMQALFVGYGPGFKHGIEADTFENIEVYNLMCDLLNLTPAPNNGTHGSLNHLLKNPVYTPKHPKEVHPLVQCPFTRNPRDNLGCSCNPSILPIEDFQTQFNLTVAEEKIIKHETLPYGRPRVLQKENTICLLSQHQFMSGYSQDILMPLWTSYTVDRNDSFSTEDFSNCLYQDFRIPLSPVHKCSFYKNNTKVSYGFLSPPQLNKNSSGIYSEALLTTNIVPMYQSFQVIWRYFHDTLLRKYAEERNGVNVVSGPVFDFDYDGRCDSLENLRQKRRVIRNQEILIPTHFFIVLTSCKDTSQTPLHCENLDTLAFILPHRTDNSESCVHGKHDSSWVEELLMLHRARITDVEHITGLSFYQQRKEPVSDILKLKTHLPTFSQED
UniProt Q7Z2W7, sequence (whole entry, looked up): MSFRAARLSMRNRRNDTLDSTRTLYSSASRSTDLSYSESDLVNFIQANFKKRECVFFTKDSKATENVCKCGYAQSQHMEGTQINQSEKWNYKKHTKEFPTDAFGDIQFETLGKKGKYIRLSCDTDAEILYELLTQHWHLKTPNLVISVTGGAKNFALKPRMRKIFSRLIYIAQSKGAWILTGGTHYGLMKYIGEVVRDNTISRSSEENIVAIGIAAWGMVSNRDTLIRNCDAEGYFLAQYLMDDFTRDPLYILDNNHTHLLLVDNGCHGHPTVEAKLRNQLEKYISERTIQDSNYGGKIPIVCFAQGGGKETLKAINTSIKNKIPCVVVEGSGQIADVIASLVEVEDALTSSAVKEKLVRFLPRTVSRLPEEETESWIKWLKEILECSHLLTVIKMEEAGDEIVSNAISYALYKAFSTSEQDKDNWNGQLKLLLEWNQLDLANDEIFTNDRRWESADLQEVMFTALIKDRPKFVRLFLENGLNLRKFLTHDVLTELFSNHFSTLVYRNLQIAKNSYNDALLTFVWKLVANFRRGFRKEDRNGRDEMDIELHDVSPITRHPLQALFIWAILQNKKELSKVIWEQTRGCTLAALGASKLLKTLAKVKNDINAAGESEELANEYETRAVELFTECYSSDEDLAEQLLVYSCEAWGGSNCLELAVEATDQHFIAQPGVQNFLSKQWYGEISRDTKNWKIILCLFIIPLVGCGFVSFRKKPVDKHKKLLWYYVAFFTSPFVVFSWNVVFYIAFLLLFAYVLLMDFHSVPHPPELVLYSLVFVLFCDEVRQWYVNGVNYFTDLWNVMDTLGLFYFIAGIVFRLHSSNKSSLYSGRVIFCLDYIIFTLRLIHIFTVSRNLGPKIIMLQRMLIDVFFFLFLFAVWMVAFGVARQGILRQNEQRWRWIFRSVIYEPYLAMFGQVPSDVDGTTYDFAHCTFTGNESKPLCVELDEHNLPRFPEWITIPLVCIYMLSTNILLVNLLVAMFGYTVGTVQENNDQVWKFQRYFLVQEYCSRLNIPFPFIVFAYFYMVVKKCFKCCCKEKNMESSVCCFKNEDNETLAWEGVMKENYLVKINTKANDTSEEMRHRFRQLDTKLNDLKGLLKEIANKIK
UniProt P08191, sequence (whole entry, looked up): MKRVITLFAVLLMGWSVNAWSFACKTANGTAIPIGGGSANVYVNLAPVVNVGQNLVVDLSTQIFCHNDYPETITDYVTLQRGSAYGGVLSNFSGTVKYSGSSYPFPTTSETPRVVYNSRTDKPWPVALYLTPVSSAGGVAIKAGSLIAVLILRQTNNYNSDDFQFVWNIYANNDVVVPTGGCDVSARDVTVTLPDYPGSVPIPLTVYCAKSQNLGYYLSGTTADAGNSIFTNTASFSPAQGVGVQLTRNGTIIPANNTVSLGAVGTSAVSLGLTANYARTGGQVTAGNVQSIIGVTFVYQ
UniProt P39748, sequence (whole entry, unmodified, looked up): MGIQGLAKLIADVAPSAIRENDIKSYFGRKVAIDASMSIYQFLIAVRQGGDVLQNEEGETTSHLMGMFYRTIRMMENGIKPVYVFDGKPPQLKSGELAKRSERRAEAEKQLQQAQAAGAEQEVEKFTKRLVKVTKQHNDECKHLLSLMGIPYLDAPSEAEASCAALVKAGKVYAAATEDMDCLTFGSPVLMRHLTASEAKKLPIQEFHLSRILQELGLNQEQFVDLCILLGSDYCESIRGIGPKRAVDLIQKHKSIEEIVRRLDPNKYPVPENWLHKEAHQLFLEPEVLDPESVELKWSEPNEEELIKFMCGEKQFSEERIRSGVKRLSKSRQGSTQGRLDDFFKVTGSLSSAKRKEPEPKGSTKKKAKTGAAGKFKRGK
UniProt P51817, sequence (whole entry, looked up): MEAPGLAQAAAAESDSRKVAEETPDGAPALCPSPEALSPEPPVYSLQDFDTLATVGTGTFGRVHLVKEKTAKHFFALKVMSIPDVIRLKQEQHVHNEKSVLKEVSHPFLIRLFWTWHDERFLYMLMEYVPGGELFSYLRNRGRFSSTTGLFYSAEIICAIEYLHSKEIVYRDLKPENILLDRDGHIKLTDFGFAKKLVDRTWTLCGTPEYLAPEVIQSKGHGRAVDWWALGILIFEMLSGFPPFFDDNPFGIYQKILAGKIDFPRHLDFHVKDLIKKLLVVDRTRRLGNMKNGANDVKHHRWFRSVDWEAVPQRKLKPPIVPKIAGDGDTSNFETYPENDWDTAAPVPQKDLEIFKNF
UniProt P69687, sequence (whole entry, looked up): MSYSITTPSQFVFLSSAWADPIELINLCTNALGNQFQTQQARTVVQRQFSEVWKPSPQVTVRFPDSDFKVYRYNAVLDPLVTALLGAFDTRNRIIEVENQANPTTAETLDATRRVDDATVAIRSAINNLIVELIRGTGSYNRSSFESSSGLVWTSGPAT
UniProt Q13526, sequence (whole entry, looked up): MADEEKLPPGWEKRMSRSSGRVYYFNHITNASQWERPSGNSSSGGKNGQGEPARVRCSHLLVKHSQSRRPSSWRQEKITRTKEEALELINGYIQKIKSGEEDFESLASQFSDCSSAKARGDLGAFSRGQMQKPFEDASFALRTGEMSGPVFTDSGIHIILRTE

| Compound | target | test | system | conditions | Kd |
| --- | --- | --- | --- | --- | --- |
| Cc1c2ccnc(C(=O)N[C@H](C)CN(C)C)c2cc2c3cc(OCCCN4CCN(C)CC4)ccc3n(C)c12 | r(CGG)16 RNA | binding, microscale thermophoresis | – | – | 1000 ± 192 nM |
| Cc1noc(C)c1CSc1nnc2nc(O)cc(N)n12 | V-type immunoglobulin domain-containing suppressor of T-cell activation (VSIR, Homo sapiens, UniProt Q9H7M9) | binding, MST | – | – | 240 nM |
| CSCC[C@H](NC(=O)[C@@H](NC(=O)[C@@H]1CCCN1C(=O)[C@H](Cc1c[nH]cn1)NC(=O)[C@H](CO)NC(=O)[C@H](CCC(N)=O)NC(=O)[C@H](CO)NC(C)=O)C(C)C)C(=O)N[C@@H](CCCCN)C(=O)N[C@@H](C)C(=O)N[C@@H](Cc1ccccc1)C(=O)N[C@@H](CS)C(=O)NCC(=O)N[C@@H](CC(C)C)C(=O)N[C@@H](CC(C)C)C(=O)N[C@@H](CC(C)C)C(=O)N[C@@H](CCC(N)=O)C(=O)N[C@@H](CO)C(=O)N[C@@H](CO)C(N)=O | Calmodulin-1, Ca2+-free (CALM1, Homo sapiens, UniProt P0DP23) | binding to apo-calmodulin, NMR titration | – | pH 7.4, 25 °C, added: EGTA 10 mM | > 800000 nM |
| O=C(O)CCC(=O)C(=O)O | Uncharacterized protein (Pelagibacter ubique, UniProt Q4FKX4) | isothermal titration calorimetry | Candidatus Pelagibacter ubique | – | 6.7 nM and 8.75 nM |
| CCCCCCCO[C@H]1CO[C@H](CO)[C@@H](O)[C@H](O)[C@@H]1O | Type 1 fimbrin D-mannose specific adhesin, lectin domain (fimH, Escherichia coli K-12, UniProt P08191) | binding, isothermal titration calorimetry | – | 15 °C, global fit, two runs | 168 nM |
| COc1ccc(C(N)=O)c[n+]1C | Nicotinamide N-methyltransferase, SAH-bound (Rattus norvegicus, UniProt A0ABK0M0V0) | binding, surface plasmon resonance | – | 37 °C, added: SAH | 200 nM |
| CN(C)c1ccc2c(-c3ccc(C(=O)NCCOCCOCCOCCn4cc(COc5cc(C(=O)c6cc(Cl)ccc6NS(=O)(=O)c6ccc(C(C)(C)C)cc6)cc[n+]5[O-])nn4)cc3C(=O)[O-])c3ccc(=[N+](C)C)cc-3oc2c1 | C-C chemokine receptor type 9 (CCR9, Homo sapiens, UniProt P51686) | binder, NanoBRET | HEK293T | – | 47.4 ± 4.5 nM |
| COC(=O)CC(C)c1nn(C)c2nc(N)[nH]c(=O)c2c1=O (stereo not shown) | folP | binding, SPR | – | – | 188 nM |
| O=c1[nH]c2ccccc2c(=O)n1O | Flap endonuclease 1 (Homo sapiens, UniProt P39748) | ITC | – | pH 7.5, 25 °C, added: 8 mM Mg2+ | 1580 nM |
| Cc1c[nH]c2nccc(-c3ccc(C(=O)N[C@@H]4c5c(F)cc(C(F)F)cc5C[C@@H]4O)cn3)c12 | cAMP-dependent protein kinase catalytic subunit PRKX (PRKX, Homo sapiens, UniProt P51817) | binding, competition with immobilised ligand | – | – | 16.5 nM |
| N#Cc1c(N)nc2c(c1-c1ccc(CO)o1)Cc1cc(O)ccc1-2 | Thymocyte selection-associated high mobility group box protein TOX (Homo sapiens, UniProt O94900) | binding, ITC | – | – | 1050 nM |
| CCCC[C@@H]1NC(=O)[C@H](Cc2ccc(O)cc2)NC(=O)[C@@H]2CCCN2C(=O)[C@H](CC(=O)O)NC(=O)[C@H](C)NC(=O)[C@H](Cc2ccccc2)NC(=O)[C@@H]2CSCCC(=O)N3CN(CN(C3)C(=O)CCSC[C@@H](C(=O)N[C@@H](C)C(N)=O)NC1=O)C(=O)CCSC[C@H](NC(C)=O)C(=O)N[C@@H](CC(C)(C)C)C(=O)N1CCC[C@H]1C(=O)N[C@@H](CCC(=O)O)C(=O)N[C@H](CCCCNC(=O)CCc1cn(CCOCCOCCOCCN(CCOCCOCCOCCC(=O)N[C@H]3CSCCC(=O)N4CN5CN(C4)C(=O)CCSC[C@H](NC(=O)[C@@H](CC(=O)O)NC(=O)[C@H](Cc4cccc6ccccc46)NC(=O)[C@@H]4CCCN4C3=O)C(=O)N[C@@H](CCSC)C(=O)N[C@@H](CCCCNC(=N)N)C(=O)N[C@@H](CC(=O)O)C(=O)N[C@@H](Cc3c[nH]c4ccccc34)C(=O)N[C@@H](CO)C(=O)N[C@@H]([C@@H](C)O)C(=O)N3CCC[C@H]3C(=O)N3C[C@H](O)C[C@H]3C(=O)N[C@@H](Cc3c[nH]c4ccccc34)C(=O)N[C@H](C(N)=O)CSCCC5=O)CCOCCOCCOCCn3cc(CCC(=O)NCCCC[C@H]4NC(=O)[C@H](CCC(=O)O)NC(=O)[C@@H]5CCCN5C(=O)[C@H](CC(C)(C)C)NC(=O)[C@@H](NC(C)=O)CSCCC(=O)N5CN6CN(C5)C(=O)CCSC[C@H](NC(=O)[C@H](Cc5ccc(O)cc5)NC(=O)[C@@H]5CCCN5C4=O)C(=O)N[C@@H](Cc4ccccc4)C(=O)N[C@@H](C)C(=O)N[C@@H](CC(=O)O)C(=O)N4CCC[C@H]4C(=O)N[C@@H](Cc4ccc(O)cc4)C(=O)N[C@@H](CCCC)C(=O)N[C@H](C(=O)N[C@@H](C)C(N)=O)CSCCC6=O)nn3)nn1)C(=O)N1CCC[C@H]1C(=O)N[C@@H](Cc1ccc(O)cc1)C(=O)N2 | Cell adhesion molecule 4 (CADM4, Homo sapiens, UniProt Q8NFZ8) | SPR | – | – | > 5000 nM |
| CCc1nc2cc3ccccc3cc2cc1C(=O)N[C@@H](CCCCN)C(=O)N[C@@H](C/C=C\C[C@H](NC(=O)[C@H](CCCCN)NC(=O)c1cc2cc3ccccc3cc2nc1CC)C(=O)N1CCC[C@H]1C(=O)NCCCN)C(=O)N1CCC[C@H]1C(=O)NCCCN | (CAG)10 RNA | SPR | – | – | 445 nM |
| COc1cccc2c(N3CCC(CCP(=O)(O)O)CC3)ncnc12 | Ectonucleotide pyrophosphatase/phosphodiesterase family member 1 (ENPP1, Homo sapiens, UniProt P22413) | binding, SPR | – | – | 0.397 nM |
| CCCCCCCCCCCCCCOc1c(O)cc(C(=O)O[C@@H]2Cc3c(O)cc(O)cc3O[C@@H]2c2cc(O)c(O)c(O)c2)cc1O | Albumin (ALB, Homo sapiens, UniProt P02768) | tryptophan fluorescence quenching | – | – | 1270 nM |
| COc1cc(/C=N/Nc2ccc(C(=O)O)cc2)ccc1OS(=O)(=O)c1ccc(C)cc1 | 5-hydroxytryptamine receptor 1E (HTR1E, Homo sapiens, UniProt P28566) | dynamic mass redistribution | HEK293 expressing HTR1E | – | 27.4 ± 2.3 nM |

| Compound | target | test | system | conditions | Kd |
| --- | --- | --- | --- | --- | --- |
| C=CC(=O)N1C[C@H](C)N(c2nc(OC[C@@]34CCCN3C[C@H](F)C4)nc3c(F)c(-c4ccc(F)c5sc(N)c(C#N)c45)c(C(F)(F)F)cc23)C[C@H]1C | KRAS Q61H GDP-bound | SPR | – | – | 1.39 ± 0.21 nM |
| Cn1ncc2cc(-c3cncc(Cl)c3N3CCC4(CCNC4=O)CC3)ccc21 | Protein FAM89A (FAM89A, Homo sapiens, UniProt Q96GI7) | SILAC displacement | LS174T-L5 cell lysate | – | 9200 nM |
| CC1CCC(C(C)C)C(NC(=O)c2ccc(-c3ccccc3)cc2)C1 (single isomer, unassigned; (-)) | Transient receptor potential cation channel subfamily M member 8 (TRPM8, Homo sapiens, UniProt Q7Z2W7) | 19F NMR titration | LPPG micelles | 37 °C | 110 ± 30 mol % |
| Cn1c(=O)n(C2CCC(=O)NC2=O)c2ccc(C3CCN(CC(=O)Nc4cccc(CS(=O)(=O)N5CC[C@H](Nc6cccc(-c7sc(C(=O)O)c(OCC(=O)O)c7Cl)c6)CC5(C)C)c4)CC3)cc21 (stereo partly shown) | Tyrosine-protein phosphatase non-receptor type 1 (PTPN1, Homo sapiens, UniProt P18031) | binding, BLI | – | – | 34 nM |
| Cn1nnnc1SCc1nn(C)c2nc(N)[nH]c(=O)c2c1=O | folP | binding, SPR | – | – | 56 nM |
| CCc1nc2cc3ccccc3cc2cc1C(=O)N1CCC[C@H]1C(=O)N[C@@H](C/C=C/C[C@H](NC(=O)[C@@H]1CCCN1C(=O)c1cc2cc3ccccc3cc2nc1CC)C(=O)N[C@@H](CCCCN)C(=O)NCCCN)C(=O)N[C@@H](CCCCN)C(=O)NCCCN | (CAG)10 RNA | SPR | – | – | 66 nM |
| O=c1ccn([C@@H]2O[C@H](COP(=O)(O)OP(=O)(O)O)[C@@H](O)[C@H]2O)c(=O)[nH]1 | O-GlcNAc transferase (Xanthomonas campestris pv. campestris, UniProt Q8PC69) | binding, surface plasmon resonance | – | – | ~100000 nM |
| NCCCC[C@H](NC(=O)[C@H](C/C=C\C[C@H](NC(=O)[C@@H]1CCCN1)C(=O)N[C@@H](CCCCN)C(=O)NCCCN)NC(=O)[C@@H]1CCCN1)C(=O)NCCCN | (CAG)10 RNA | SPR | – | – | 145 nM |
| CC(=O)N[C@H](C(=O)N1CCC[C@H]1C(=O)N[C@@H](CCCNC(=N)N)C(=O)N[C@H](C(=O)N1CCC[C@H]1C(=O)N[C@H](C(N)=O)C(C)C)[C@@H](C)OP(=O)(O)O)C(C)C | Peptidyl-prolyl cis-trans isomerase NIMA-interacting 1, WW domain (PIN1, Homo sapiens, UniProt Q13526) | binding, competitive ELISA | – | pH 7.3 | 110000 ± 30000 nM |
| O=c1cc(-c2ccccc2)oc2c(OCCCCN3CCCC3)c(OCc3ccccc3)cc(O)c12 | Thioredoxin reductase 1, cytoplasmic (TXNRD1, Homo sapiens, UniProt Q16881) | binding, MST | – | – | 8800 nM |
| C=CC(=O)N1CC2(CCN(c3nc(OC4CCN(CCCOC)CC4)nc4c(OCC(F)(F)F)c(-c5c(C)ccc6[nH]ncc56)c(C5CC5)cc34)CC2)C1 | KRAS Q61H GDP-bound | SPR | – | – | 1150 ± 130 nM |
| Nc1nc2[nH]nc(CC(=O)O)c(=O)c2c(=O)[nH]1 | folP | binding, SPR | – | – | 1.59 nM |
| Cc1ccc(C(=O)Nc2ccc(S(=O)(=O)O)c3cc(S(=O)(=O)O)cc(S(=O)(=O)O)c23)cc1NC(=O)c1cccc(NC(=O)Nc2cccc(C(=O)Nc3cc(C(=O)Nc4ccc(S(=O)(=O)O)c5cc(S(=O)(=O)O)cc(S(=O)(=O)O)c45)ccc3C)c2)c1 | Electrogenic aspartate/glutamate antiporter SLC25A13, mitochondrial (SLC25A13, Homo sapiens, UniProt Q9UJS0) | isothermal titration calorimetry | vesicles | – | 7250 nM |
| COC(=O)CC(C)c1n[nH]c2nc(N)[nH]c(=O)c2c1=O (stereo not shown) | folP | binding, SPR | – | – | 619 nM |
| CCSC(SCC)c1ccc(OCCNS(=O)(=O)c2ccc(C)cc2)c(Cl)c1 | CP (Tobacco mosaic virus, UniProt P69687) | binding, MST | – | – | 66100 nM |

Excerpt of the above:
| Compound | target | test | system | conditions | Kd |
| --- | --- | --- | --- | --- | --- |
| Cn1c(=O)n(C2CCC(=O)NC2=O)c2ccc(C3CCN(CC(=O)Nc4cccc(CS(=O)(=O)N5CC[C@H](Nc6cccc(-c7sc(C(=O)O)c(OCC(=O)O)c7Cl)c6)CC5(C)C)c4)CC3)cc21 (stereo partly shown) | Tyrosine-protein phosphatase non-receptor type 1 (PTPN1, Homo sapiens, UniProt P18031) | binding, BLI | – | – | 34 nM |
| Cn1nnnc1SCc1nn(C)c2nc(N)[nH]c(=O)c2c1=O | folP | binding, SPR | – | – | 56 nM |
| CCc1nc2cc3ccccc3cc2cc1C(=O)N1CCC[C@H]1C(=O)N[C@@H](C/C=C/C[C@H](NC(=O)[C@@H]1CCCN1C(=O)c1cc2cc3ccccc3cc2nc1CC)C(=O)N[C@@H](CCCCN)C(=O)NCCCN)C(=O)N[C@@H](CCCCN)C(=O)NCCCN | (CAG)10 RNA | SPR | – | – | 66 nM |
